Experimental data pooled from the literature.
Numbered parts are unrelated; each lists some results of a single study. Substitutions count along the parent as printed.

Block 1
Target: Histone acetyltransferase KAT6A, winged helix 1, GST fusion (KAT6A, Homo sapiens, UniProt Q92794, residues 1-85)
Method: protein binding microarray
Form: double-stranded DNA, one strand shown
Matrix: in vitro
Tested at: not given
Setting: 8-mer, flanks averaged, mean of 2 arrays, mostly near background
Relative to: not given
Direction: higher = stronger binding
Construct (chain): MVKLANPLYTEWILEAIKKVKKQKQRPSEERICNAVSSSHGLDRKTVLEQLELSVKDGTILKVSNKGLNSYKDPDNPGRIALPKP
Sequence | E-score
AATTTTGG | -0.134
CGGACTCC | 0.158
CAGTTAGC | 0.0167
CGCCAGCG | 0.333
ATTGGCGA | -0.123
ACTGATTA | -0.161
ACCTAACT | -0.0632
CGTAAGAG | 0.062

Block 2
Target: CCNA1, cyclin fold, Cln2 fusion (human)
Method: yeast growth competition, sequencing
Matrix: yeast
Setting: weak parent motif
Relative to: not given
Direction: higher = stronger binding
Starting sequence: MICAL3 docking peptide (human); LQLRRQLSFSEDS
Variant | normalised enrichment score
LPLRRQLSFSEDS [Q2P] | 0.803
LQLRRALSFSEDS [Q6A] | 0.263
LQSRRQLSFSEDS [L3S] | 0.807
LGLRRQLSFSEDS [Q2G] | 0.304
LQLRRQLEFSEDS [S8E] | -0.0175
LQLRRQLPFSEDS [S8P] | 0.165
LQYRRQLSFSEDS [L3Y] | 0.196
LQLRRQLSFHEDS [S10H] | 0.435

Block 3
Target: Centromere-binding protein 1, full length, N-terminal tag (CBF1, Saccharomyces cerevisiae, UniProt P17106, residues 1-351)
Sequence of UniProt P17106 (whole entry, looked up): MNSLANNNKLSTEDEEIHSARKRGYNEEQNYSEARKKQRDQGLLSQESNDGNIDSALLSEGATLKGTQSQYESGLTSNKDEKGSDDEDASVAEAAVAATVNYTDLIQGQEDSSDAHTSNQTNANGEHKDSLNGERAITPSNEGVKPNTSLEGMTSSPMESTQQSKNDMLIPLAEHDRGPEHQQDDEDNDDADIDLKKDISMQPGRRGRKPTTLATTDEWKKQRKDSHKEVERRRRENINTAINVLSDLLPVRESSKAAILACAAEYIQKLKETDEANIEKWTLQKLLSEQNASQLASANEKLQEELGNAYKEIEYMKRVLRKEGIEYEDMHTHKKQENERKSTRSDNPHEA
Method: protein-binding microarray
Form: double-stranded DNA, one strand shown
Matrix: in vitro
Tested at: 0.8 µM
Setting: whole 60-bp probe, no competitor
Direction: higher = stronger binding
Constant ends, left off below: … GTCTTGATTCGCTTGACGCTGCTG
Sequence | fluorescence intensity [a.u.]
CTAGTTCAATGCCTTCATATGATTGGTCCGAATTTC | 513
GAACTTTATCTCCGTCAGATGAGAAAGGTTTACTAG | 534
GAACGAATAAATAGCAACGTGAATAAGTAAGTCTAG | 640
GAAGCAGTGAAACCTCGTGGGAGAAAGCCGGTTTAG | 549
GAAAACATCACGATGCACGAGCACTGTTTCCAATAG | 756
GAATAGTTTTGAGTTCACCTGTTGGTGCAGTATTAG | 515
GAATTCGTCATCAGTCATCTGACGTACGGCTTTTAG | 1090
GAAAATAGGCACAATCACACTTAAACGTATACGTAG | 529

Further values, each from its own experiment
Compound | test system | setting | endpoint | result
CC(C)CN1CCN(S(=O)(=O)c2ccc(-c3nnc(C(C)C)o3)o2)CC1 | human, microsomes or S9 | 2 µM, 0.5 h | remaining compound | 30.1%

For quick reference, copied from above (block 2):
Variant | normalised enrichment score
LQLRRALSFSEDS [Q6A] | 0.263
LQSRRQLSFSEDS [L3S] | 0.807
LGLRRQLSFSEDS [Q2G] | 0.304
